# Measured values gathered from unrelated publications.
# Parts stem from different laboratories: compare values within a part only.

# Study 1 — cell line: HEK-293T/ACE2; concentration: concentration not given; time: 16 (unit not given); relative to: vehicle
SMILES,viability [%]
CCCCCCCCCCCCCCCCOP(=O)([O-])OCC[N+](C)(C)C,106
CC(=O)/N=c1/sc(S(N)(=O)=O)nn1C,99.6
COc1ccc(CN(C(=O)[C@@H](N)Cc2c(C)cc(C(N)=O)cc2C)[C@@H](C)c2nc(-c3ccccc3)c[nH]2)cc1C(=O)O,97.5
CCCCN1CCCCC1C(=O)Nc1c(C)cccc1C (stereo not shown),95.4

# Study 2 — method: RNAcompete; form: RNA; matrix: in vitro; concentration: 20 nM; setting: 7-mer, probes averaged, single round; relative to: mean of 7-mers; direction: higher = stronger binding
# Target: PABPC1L2, full length, GST fusion (mouse, UniProt A0ABA7IW68)
# Target sequence (chain): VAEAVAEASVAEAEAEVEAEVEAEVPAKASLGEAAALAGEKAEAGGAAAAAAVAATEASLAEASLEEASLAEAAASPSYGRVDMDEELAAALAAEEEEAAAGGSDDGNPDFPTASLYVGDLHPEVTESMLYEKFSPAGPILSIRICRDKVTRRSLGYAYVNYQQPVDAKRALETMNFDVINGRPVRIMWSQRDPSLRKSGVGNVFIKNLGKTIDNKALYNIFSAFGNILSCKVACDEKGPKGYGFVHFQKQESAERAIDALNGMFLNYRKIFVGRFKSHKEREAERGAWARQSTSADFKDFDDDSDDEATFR
Sequence,7-mer Z-score
UAUGCAU,-0.197
CCACCGA,-0.141
CUUCCCU,-0.528
GUUCUGU,-0.402
ACCAACA,0.095
UCUAAGG,-0.177
GAGCCUC,-0.458
UCGUGGC,-0.226

# Study 3 — effect on: enzyme activity; action: inhibitor; concentration: 20 µM
# Target: Replicase polyprotein 1ab, polymerase (rep, Severe acute respiratory syndrome coronavirus 2, UniProt P0DTD1)
Compound,inhibition
CN([C@@H](Cc1ccc(OS(=O)(=O)c2cccc3cnccc23)cc1)C(=O)N1CCN(c2ccccc2)CC1)S(=O)(=O)c1cccc2cnccc12,6.01%
N#Cc1cnc2c(Cl)cc(NCc3cn(CCN4CCCCCC4)nn3)cc2c1Nc1ccc(F)c(Cl)c1,-0.47%
CO/N=C(\C(=O)N[C@@H]1C(=O)N2C(C(=O)[O-])=C(C[n+]3ccn4ncccc43)CS[C@H]12)c1nsc(N)n1,0.46%
Cc1nc(Nc2ncc(C(=O)Nc3c(C)cccc3Cl)s2)cc(N2CCN(CCO)CC2)n1,9.58%
COC1CCN(c2cccc(-c3cc(NC(C)=O)nc(-n4nc(C)cc4C)n3)n2)CC1,11.1%
O=C(CCCCCCNC(=O)c1cnc(N(c2ccccc2)c2ccccc2)nc1)NO,1.82%
C[C@]1(COc2ccc(N3CCC(Oc4ccc(OC(F)(F)F)cc4)CC3)cc2)Cn2cc([N+](=O)[O-])nc2O1,17.4%
C#CC1(OCC(O)CN2CCN(c3cccc(C(F)(F)F)c3)CC2)CCCCC1 (stereo not shown),-0.43%
C1=C2CCCN[C@H]2[C@@H]2C[C@H]1[C@H]1CCCCN1C2,1.63%
Cc1ncc([N+](=O)[O-])n1CC(O)CN1CCOCC1 (stereo not shown),-3.19%
O=[N+]([O-])c1ccc(Cl)c([N+](=O)[O-])c1,4.5%
CC(=C(CCOC(=O)C(C)C)SSC(CCOC(=O)C(C)C)=C(C)N(C=O)Cc1cnc(C)nc1N)N(C=O)Cc1cnc(C)nc1N (stereo in doubt),-2.45%
O[C@@H](c1cc(C(F)(F)F)nc2c(C(F)(F)F)cccc12)[C@H]1CCCCN1,7.71%

# Study 4 — effect on: enzyme activity; action: inhibitor; concentration: 20 µM; setting: hit confirmation
# Target: Replicase polyprotein 1ab, main protease (rep, Severe acute respiratory syndrome coronavirus 2, UniProt P0DTD1)
SMILES,inhibition [%]
C=CCNC(=O)c1cc([N+](=O)[O-])cc2c(=O)[nH]c(Nc3ccc(Cl)c(Cl)c3)nc12,-4.9
Cc1c(C)c(NCC(=O)N(C)C2CCN(Cc3ccc(C(N)=O)cc3)CC2)c(C)c(C)c1N,-0.5
O=C(c1ccc(Cl)cc1)c1cc([N+](=O)[O-])ccc1N1CCOCC1,83.6

# A few entries again (study 4):
SMILES,inhibition [%]
O=C(c1ccc(Cl)cc1)c1cc([N+](=O)[O-])ccc1N1CCOCC1,83.6
